Measurements from different studies.
Every numbered part comes from another study and shows a few of its results, in no order. Positions count from the first letter of the parent shown.

Sample 1
Target: Histone acetyltransferase KAT6A, both winged helices, GST fusion (KAT6A, Homo sapiens, UniProt Q92794, residues 1-181)
Technique: protein binding microarray
Form: double-stranded DNA, one strand shown
Medium: in vitro
Tested at: not given
Setting: 8-mer, flanks averaged, mean of 2 arrays, mostly near background
Relative to: not given
Reading: higher = stronger binding
Construct (chain): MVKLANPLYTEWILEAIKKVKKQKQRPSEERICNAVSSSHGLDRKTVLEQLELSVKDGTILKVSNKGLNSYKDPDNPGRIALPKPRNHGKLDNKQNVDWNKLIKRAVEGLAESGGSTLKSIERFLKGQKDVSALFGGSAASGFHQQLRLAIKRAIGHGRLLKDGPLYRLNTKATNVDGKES
| Sequence | E-score |
| --- | --- |
| CCCTTGCA | -0.176 |
| AGTATCTC | 0.00629 |
| TCCACAAA | -0.11 |
| CGACGTAA | 0.0968 |
| CATTTGCA | -0.0769 |
| GTAATGCA | -0.124 |
| ATCGACTG | -0.133 |
| CTGTTTAA | 0.125 |
| ACTACCAG | -0.138 |
| ACAGGCCA | -0.122 |
| CGAGGCTC | 0.087 |
| CCATCCTA | -0.127 |
| AAAGTCTG | -0.185 |
| CCATCGCC | 0.118 |
| CGTGTGTC | 0.0912 |
| GACTAAGC | 0.00373 |
| ACATCGTC | -0.033 |

Sample 2
Target: Interferon regulatory factor 5, full length, phosphomimetic (IRF5, Homo sapiens, UniProt Q13568-2, residues 1-514, S451D/S453D/S456D/S462D)
Technique: protein-binding microarray
Form: double-stranded DNA, one strand shown
Medium: in vitro
Tested at: 940 nM top
Setting: 60-bp whole probe
Added: salmon DNA 0.4 mg/ml
Relative to: random background probes
Reading: higher = stronger binding
Shared flanks, not repeated: GCCTAGCAC … GTCTTGATTCGCTTGACGCTGCTG
| Sequence | fitted relative affinity |
| --- | --- |
| GAGGGTCTCCTTATCCTGACGTGCTAG | 0.0798 z-score |
| TTAGATTTCGGGACTGGATAAGTGCTA | 0.856 z-score |
| TTAGAACTGGGGACTGAATTAGTGCTA | 0.0729 z-score |
| GACGTTTTCAGTATCGAGACGTGCTAG | 3.01 z-score |
| TTAGATTTCAGTATCGATCAGTGCTAG | 5.68 z-score |
| GACGGTATCGACACTGGTGACGTGCTA | 3.28 z-score |
| TTAGGTATCGGAACTGGGTTAGTGCTA | 4.63 z-score |
| TTAGGTCTTGGACTGGGTTAGTGCTAG | -0.417 z-score |
| GACGGTCTCCTACTCCTGACGTGCTAG | 0.338 z-score |
| CTAGGTTTCCTTATCCTTTAGTGCTAG | 1.19 z-score |
| CCTATCTTATGATATATATAAGTGCTA | 0.829 z-score |
| GTAGGTTTCGACTTTCGGTTAGTGCTA | 8.85 z-score |
| GGTTTTTTTTTAATTGAAATGTGCTAG | 0.564 z-score |
| TCATTTTTTAGCTTCTCACTGTGCTAG | 1.16 z-score |
| TTAGGTATCGACTATCGGTTGGTGCTA | 6.63 z-score |
| TTAGGTCTCGGTCGCGGTTAGTGCTAG | 5.04 z-score |
| GACGGACTGGTTTTCCTGACGTGCTAG | -0.0465 z-score |

Sample 3
Target: Prothrombin, mature alpha-thrombin (F2, Homo sapiens, UniProt P00734)
Technique: aptamer microarray, sandwich
Form: DNA with 2'F-ANA
Medium: in vitro
Tested at: 200 nM
Setting: whole 15-mer aptamer, many near background
Added: Cy3 exosite-II aptamer, 400 nM
Reading: higher = stronger binding
Sequence: GGTTGGTGTGGTTGG
| Modification | mean fluorescence intensity |
| --- | --- |
| 2'F-ANA at 1 2 6 8 9 10 11 12 | 63 a.u. |
| 2'F-ANA at 2 3 5 6 10 11 12 | 74.6 a.u. |
| 2'F-ANA at 3 4 5 8 9 10 12 14 15 | 56.4 a.u. |
| 2'F-ANA at 9 12 14 | 212 a.u. |
| 2'F-ANA at 3 5 6 9 15 | 109 a.u. |
| 2'F-ANA at 2 4 7 8 9 11 12 15 | 784 a.u. |
| 2'F-ANA at 2 3 5 8 11 13 | 85.9 a.u. |
| 2'F-ANA at 1 3 7 9 12 14 | 114 a.u. |
| 2'F-ANA at 1 3 7 15 | 410 a.u. |
| 2'F-ANA at 1 4 6 7 8 9 13 | 80.6 a.u. |
| 2'F-ANA at 1 2 3 5 6 8 9 11 13 15 | 111 a.u. |
| 2'F-ANA at 3 6 7 | 1070 a.u. |
| 2'F-ANA at 2 3 4 5 9 10 12 13 | 53.2 a.u. |
| 2'F-ANA at 4 6 7 8 9 10 13 14 15 | 58.2 a.u. |
| 2'F-ANA at 3 4 5 7 8 12 14 15 | 59.6 a.u. |
| 2'F-ANA at 1 4 6 7 10 11 15 | 79.6 a.u. |
| 2'F-ANA at 2 4 6 8 12 13 15 | 362 a.u. |
| 2'F-ANA at 1 3 5 6 8 9 10 12 14 15 | 46 a.u. |
| 2'F-ANA at 1 4 6 9 15 | 103 a.u. |
| 2'F-ANA at 1 3 4 5 8 11 14 15 | 47.1 a.u. |
| 2'F-ANA at 1 2 5 9 11 12 13 14 | 48.6 a.u. |
| 2'F-ANA at 1 2 3 4 5 8 9 12 | 118 a.u. |
| 2'F-ANA at 1 2 4 5 6 9 10 11 12 13 14 15 | 53.5 a.u. |
| 2'F-ANA at 2 3 4 7 8 9 11 14 | 303 a.u. |
| 2'F-ANA at 2 3 5 6 7 11 14 | 49.3 a.u. |

Sample 4
Target: RING finger protein unkempt homolog, zinc fingers 1-6, GST-SBP tag (UNK, Homo sapiens, UniProt Q9C0B0, residues 30-357)
Chain of UniProt Q9C0B0 (30-357, looked up): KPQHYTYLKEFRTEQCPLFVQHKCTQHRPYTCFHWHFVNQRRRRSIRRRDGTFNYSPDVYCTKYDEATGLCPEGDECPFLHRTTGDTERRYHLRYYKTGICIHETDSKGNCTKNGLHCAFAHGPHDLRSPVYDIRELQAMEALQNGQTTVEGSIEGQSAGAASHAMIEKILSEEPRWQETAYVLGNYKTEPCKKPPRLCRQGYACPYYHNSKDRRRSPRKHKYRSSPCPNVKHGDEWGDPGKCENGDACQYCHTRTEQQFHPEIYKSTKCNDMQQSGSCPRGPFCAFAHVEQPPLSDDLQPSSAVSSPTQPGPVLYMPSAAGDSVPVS
Technique: RNA Bind-n-Seq
Form: RNA
Medium: in vitro
Tested at: not given
Setting: RNA with constant flanks, ends assumed
Relative to: input RNA pool
Reading: higher = stronger binding
Shared flanks, not repeated: GGGAGUUCUACAGUCCGACGAUC … CAACAGAGGAUUGAGCAUCA
| Sequence | bound/input enrichment |
| --- | --- |
| UGUGAAAAUAUAUAAAUAUCACCCAAAAGGCUUUCUGCCCUAUAUUUUUAAAAUACAGAACCGUUAUAUUUGAAGUAGCCCUGGCCCUAGUUCUAUAGGGCUUGGCUAUUUAAUAUUUUU | 0.157 ratio |
| UUCGCCUGCGCCAAGCUCGCCCGCACCCCCGCUCUGAUCCGAGCUGGAUCCAGAGUUGCAUACCGACCAAUUUCUGCAUCAGUGUUAUCUCGGCCAGAGACUAGGACUGGAGAGGGCUCU | 0.139 ratio |
| CAAGUACCUUAUAAAUAUGACUUAUAUGAAAAAACUUUGAAAUAUAAUUCAGACUUGCUUAACCGUAAUAGAAGCUAUGCAGGAAAGCAGACUGAUGAGUGUAAUGAAUUUGGAAAAGCA | 0.387 ratio |
| GAGGAUCCGUACCCACACAAGUUCCACGUGGACAUCUCACUCACUCAGUUCAUCCAAGAAUACCGUCACCUGCAGCCUGGGGACCACCUGACUGAUGUCACCCUCAAAGUGGCAGGCCGC | 0.214 ratio |
| UGGUCCUCGGUUGCUCGUCAUGCAAGUGCUAUUUCCCGGAGUAUUUCUGCCUCAACAGUUCUCCGGCCUGUUGCUUCUAGAAGAACCUGUUUGACAGACAUACUGUGGUCUGCCUCUGCC | 0.22 ratio |
| UGGACAAACCAUAAAUUCAAUGUGUCUGCCACUCCAGAGCAAUACGUUCCUUAUUCCACCACCCGAAAGAAGAUUCAUGAAUGGGUUCCACCUUCGACACCUUACAAGUGACCGCAGUGA | 0.174 ratio |
| CAACAAUUAGAAGCACCUUAUAACAGUGAUACUGUGCUUGUCCACCGAGUUCACAGUUAUUCCGAGCGUCAUGGUCUUAUCAACUUCGGCAUCUAUAAGAGGAUAAAACCCCUACCAACU | 0.22 ratio |
| UGAGGUUUGGCAGAGUGCUGUUGUCCAUCUUGUUGGCCUGUCUGUGAGUUUCGAAUGUGGACCGACAGAGGGAAUCUGAGUGCAGUUCUACUUGGAAAACCAUCUCUCCCCAGAGUAGGA | 0.258 ratio |
| GUAUGAAUUUAUUUUCCUUUGCUACUCAUUACCUGACCACUUUCACUCCUCUAGAUACCCUCCGGAAUAAACCUGAACUGUUCCAAAUCGAUUCUUCCAAGAGCUUUGGUGUUGGUACCU | 0.614 ratio |
| GUUUUUAUCAUUUUAAGAACAUUUCAUAAACAGAAUUGUACUUUUAAAAACAAUUUUUUAUUCCGCAUUCUACCUUUUGAAAUGUACUGUCUUACUCCAAAUAAUAUCCUGAGAUCUAUC | 0.346 ratio |
| AACAAUGAAUUUAAGACAUAUGGCAUUGAACCUUGAUAUUGAAUUCACAAAGAAUUUCCUACCGAGCACAGAUUUUUGUUAACAUGAGUCAUAACUGUUAACAAUAUUUUAUUUCUCUUA | 0.113 ratio |

Sample 5
Target: CCNE2, cyclin fold, Cln2 fusion (human)
Technique: yeast growth competition, sequencing
Medium: yeast
Setting: strong parent motif
Relative to: not given
Reading: higher = stronger binding
Parent: CDKN1A docking peptide (human); SKACRRLFGPVDS
| Variant | normalised enrichment score |
| --- | --- |
| V11K | 3.15 |
| A3W | 1 |
| P10A | 3.66 |
| L7C | 0.175 |
| A3S | 0.384 |
| F8I | 0.576 |
| D12R | 1.94 |
| C4W | 1.4 |
| K2E | 2.24 |
| G9K | 2.59 |
| C4Q | 1.21 |
| R6H | 0.891 |
| A3M | 1.22 |
| A3L | 0.783 |
| K2W | 1.75 |
| A3E | 0.623 |
| G9M | 4.26 |
| G9S | 4.04 |
| V11M | 3.77 |
| V11Y | 4.43 |
| R5L | 0.432 |
| V11L | 3.52 |
| V11D | 5.45 |
| L7Q | 0.25 |
| R6N | 1.96 |

A few entries again (sample 2):
| Sequence | fitted relative affinity |
| --- | --- |
| TTAGAACTGGGGACTGAATTAGTGCTA | 0.0729 z-score |
| GACGTTTTCAGTATCGAGACGTGCTAG | 3.01 z-score |
| TTAGATTTCAGTATCGATCAGTGCTAG | 5.68 z-score |
| GACGGTATCGACACTGGTGACGTGCTA | 3.28 z-score |
| TTAGGTATCGGAACTGGGTTAGTGCTA | 4.63 z-score |
| TTAGGTCTTGGACTGGGTTAGTGCTAG | -0.417 z-score |
| GACGGTCTCCTACTCCTGACGTGCTAG | 0.338 z-score |
| CTAGGTTTCCTTATCCTTTAGTGCTAG | 1.19 z-score |
| CCTATCTTATGATATATATAAGTGCTA | 0.829 z-score |
| GTAGGTTTCGACTTTCGGTTAGTGCTA | 8.85 z-score |
| GGTTTTTTTTTAATTGAAATGTGCTAG | 0.564 z-score |
| TCATTTTTTAGCTTCTCACTGTGCTAG | 1.16 z-score |
| TTAGGTATCGACTATCGGTTGGTGCTA | 6.63 z-score |
| TTAGGTCTCGGTCGCGGTTAGTGCTAG | 5.04 z-score |
